{"data": "Assay results of several laboratories", "note": "Parts stem from different laboratories: compare values within a part only.", "sequence of UniProt Q9Y385 (whole entry, looked up)": "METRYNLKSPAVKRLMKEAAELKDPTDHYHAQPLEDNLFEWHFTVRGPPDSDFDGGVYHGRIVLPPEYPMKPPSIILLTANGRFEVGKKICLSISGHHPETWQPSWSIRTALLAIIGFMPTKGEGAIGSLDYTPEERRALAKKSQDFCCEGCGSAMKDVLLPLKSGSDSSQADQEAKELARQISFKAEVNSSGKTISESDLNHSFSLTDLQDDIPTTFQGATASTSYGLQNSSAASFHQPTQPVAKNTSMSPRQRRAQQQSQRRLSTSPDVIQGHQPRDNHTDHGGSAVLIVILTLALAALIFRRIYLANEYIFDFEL", "sequence of UniProt P62253 (whole entry, looked up)": "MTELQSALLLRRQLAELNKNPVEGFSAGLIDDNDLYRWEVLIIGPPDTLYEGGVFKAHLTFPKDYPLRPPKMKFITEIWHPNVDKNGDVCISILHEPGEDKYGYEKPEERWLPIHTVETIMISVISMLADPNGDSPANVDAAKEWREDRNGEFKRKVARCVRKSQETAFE", "sequence of UniProt Q9H832 (whole entry, looked up)": "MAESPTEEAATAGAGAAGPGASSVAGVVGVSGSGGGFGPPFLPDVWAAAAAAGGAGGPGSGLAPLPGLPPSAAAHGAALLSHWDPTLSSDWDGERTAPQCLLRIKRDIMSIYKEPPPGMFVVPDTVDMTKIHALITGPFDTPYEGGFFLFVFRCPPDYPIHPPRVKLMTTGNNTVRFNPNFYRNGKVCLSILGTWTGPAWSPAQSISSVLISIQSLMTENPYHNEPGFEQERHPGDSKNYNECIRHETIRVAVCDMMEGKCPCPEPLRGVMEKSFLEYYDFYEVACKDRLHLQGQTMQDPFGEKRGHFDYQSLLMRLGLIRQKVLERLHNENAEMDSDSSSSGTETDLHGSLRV", "sequence of UniProt Q9NPD8 (whole entry, looked up)": "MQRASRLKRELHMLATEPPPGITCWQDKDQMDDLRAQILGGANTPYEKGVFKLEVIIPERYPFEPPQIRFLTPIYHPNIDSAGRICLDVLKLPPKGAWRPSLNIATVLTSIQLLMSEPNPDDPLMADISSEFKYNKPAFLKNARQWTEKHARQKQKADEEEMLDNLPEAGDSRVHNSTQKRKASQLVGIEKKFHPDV", "sequence of UniProt P68036 (whole entry, looked up)": "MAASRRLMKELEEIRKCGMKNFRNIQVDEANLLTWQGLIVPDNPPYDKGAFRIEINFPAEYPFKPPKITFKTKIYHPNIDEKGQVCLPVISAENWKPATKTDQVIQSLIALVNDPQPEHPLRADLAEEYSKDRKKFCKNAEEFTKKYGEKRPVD", "sequence of UniProt P51668 (whole entry, looked up)": "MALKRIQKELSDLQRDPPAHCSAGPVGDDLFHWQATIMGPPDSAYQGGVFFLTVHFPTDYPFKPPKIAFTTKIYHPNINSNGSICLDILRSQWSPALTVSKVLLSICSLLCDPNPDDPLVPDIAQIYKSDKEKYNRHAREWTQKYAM", "sequence of UniProt P61081 (whole entry, looked up)": "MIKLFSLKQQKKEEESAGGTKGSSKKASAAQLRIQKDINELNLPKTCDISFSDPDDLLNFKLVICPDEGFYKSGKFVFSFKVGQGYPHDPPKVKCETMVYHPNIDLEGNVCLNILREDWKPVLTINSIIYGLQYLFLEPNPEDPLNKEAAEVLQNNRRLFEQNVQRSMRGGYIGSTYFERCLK"}
{"data": "Series 1", "Substance": "RNF13 RING domain (UniProt O43567)", "method": "yeast two-hybrid", "medium": "yeast", "setting": "mostly zero background", "reference": "not given", "reading": "higher = stronger interaction", "sequence of UniProt O43567 (whole entry, looked up)": "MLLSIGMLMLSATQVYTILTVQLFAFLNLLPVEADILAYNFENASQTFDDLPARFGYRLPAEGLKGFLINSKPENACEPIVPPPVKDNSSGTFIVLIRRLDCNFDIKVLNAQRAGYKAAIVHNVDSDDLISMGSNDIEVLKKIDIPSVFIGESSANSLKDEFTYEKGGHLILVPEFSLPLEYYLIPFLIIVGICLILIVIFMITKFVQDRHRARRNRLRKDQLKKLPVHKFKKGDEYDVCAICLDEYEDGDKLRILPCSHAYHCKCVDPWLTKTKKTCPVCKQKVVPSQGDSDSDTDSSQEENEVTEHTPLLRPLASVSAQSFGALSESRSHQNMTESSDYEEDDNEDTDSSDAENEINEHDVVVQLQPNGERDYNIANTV"}
{"target": "UBE2D1 UBC core domain (UniProt P51668)", "lacZ reporter activity": 7230}
{"target": "UBE2Z UBC core domain (UniProt Q9H832)", "lacZ reporter activity": 0}
{"target": "UBE2J1 UBC core domain (UniProt Q9Y385)", "lacZ reporter activity": 0}
{"target": "UBE2T UBC core domain (UniProt Q9NPD8)", "lacZ reporter activity": 0}
{"target": "UBE2L3 UBC core domain (UniProt P68036)", "lacZ reporter activity": 0}
{"target": "UBE2I UBC core domain (UniProt P63279)", "lacZ reporter activity": 0}
{"target": "UBE2G1 UBC core domain (UniProt P62253)", "lacZ reporter activity": 0}
{"target": "UBE2M UBC core domain (UniProt P61081)", "lacZ reporter activity": 0}
{"data": "Series 2", "target": "PABPC1L2, full length, GST fusion (mouse, UniProt A0ABA7IW68)", "method": "RNAcompete", "molecule type": "RNA", "medium": "in vitro", "concentration": "20 nM", "setting": "7-mer, probes averaged, single round", "reference": "mean of 7-mers", "reading": "higher = stronger binding", "Residues (chain)": "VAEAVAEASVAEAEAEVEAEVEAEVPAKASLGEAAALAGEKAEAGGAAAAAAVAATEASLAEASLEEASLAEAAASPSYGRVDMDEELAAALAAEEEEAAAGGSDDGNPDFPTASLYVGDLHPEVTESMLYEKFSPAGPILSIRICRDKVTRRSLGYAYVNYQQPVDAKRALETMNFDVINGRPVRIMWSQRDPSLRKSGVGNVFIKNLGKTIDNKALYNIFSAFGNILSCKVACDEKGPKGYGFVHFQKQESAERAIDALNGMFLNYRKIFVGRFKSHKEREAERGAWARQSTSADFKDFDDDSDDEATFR"}
{"Strand": "GAGAAGA", "7-mer Z-score": 0.276}
{"Strand": "UUGCCUC", "7-mer Z-score": -0.387}
{"Strand": "GCAUAGC", "7-mer Z-score": -0.257}
{"Strand": "UAAGUCC", "7-mer Z-score": -0.369}
{"Strand": "UUAUGUC", "7-mer Z-score": -0.344}
{"Strand": "GUUAGGA", "7-mer Z-score": -0.0645}
{"Strand": "CCGCUUG", "7-mer Z-score": -0.452}
{"Strand": "GACCAGC", "7-mer Z-score": -0.135}
{"data": "Series 3", "target": "Sal-like protein 4, full length isoform A (SALL4, Homo sapiens, UniProt Q9UJQ4, residues 1-1053)", "method": "universal PBM", "molecule type": "double-stranded DNA, one strand shown", "medium": "in vitro", "concentration": "600 nM", "setting": "8-mer, flanks averaged, mean of replicates", "reading": "higher = stronger binding", "sequence of UniProt Q9UJQ4 (whole entry, looked up)": "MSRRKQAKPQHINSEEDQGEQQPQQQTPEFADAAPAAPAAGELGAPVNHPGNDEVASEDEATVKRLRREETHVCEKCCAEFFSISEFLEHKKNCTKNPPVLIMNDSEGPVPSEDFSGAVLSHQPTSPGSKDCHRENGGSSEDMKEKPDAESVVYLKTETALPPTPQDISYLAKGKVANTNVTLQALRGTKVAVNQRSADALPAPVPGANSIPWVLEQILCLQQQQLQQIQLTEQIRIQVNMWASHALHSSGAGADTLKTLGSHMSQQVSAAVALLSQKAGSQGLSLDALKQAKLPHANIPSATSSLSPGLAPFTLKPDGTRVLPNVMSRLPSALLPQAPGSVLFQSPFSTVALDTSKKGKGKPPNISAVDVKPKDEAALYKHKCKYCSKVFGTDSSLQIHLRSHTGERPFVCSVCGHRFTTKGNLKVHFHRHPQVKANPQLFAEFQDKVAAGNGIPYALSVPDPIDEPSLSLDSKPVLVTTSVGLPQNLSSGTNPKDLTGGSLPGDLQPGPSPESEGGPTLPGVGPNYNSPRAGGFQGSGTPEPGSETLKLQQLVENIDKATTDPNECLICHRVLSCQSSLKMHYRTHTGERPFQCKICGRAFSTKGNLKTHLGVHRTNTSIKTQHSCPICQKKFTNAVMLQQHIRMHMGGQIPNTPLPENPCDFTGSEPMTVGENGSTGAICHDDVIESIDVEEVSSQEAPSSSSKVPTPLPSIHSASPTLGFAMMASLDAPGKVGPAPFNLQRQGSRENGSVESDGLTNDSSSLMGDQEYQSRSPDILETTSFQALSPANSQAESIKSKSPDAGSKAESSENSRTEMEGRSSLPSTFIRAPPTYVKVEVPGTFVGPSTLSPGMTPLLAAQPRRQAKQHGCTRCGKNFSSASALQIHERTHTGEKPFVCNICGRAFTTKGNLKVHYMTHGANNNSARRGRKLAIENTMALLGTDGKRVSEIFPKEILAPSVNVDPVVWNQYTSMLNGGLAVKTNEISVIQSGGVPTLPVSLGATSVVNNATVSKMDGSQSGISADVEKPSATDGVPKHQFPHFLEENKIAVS"}
{"Strand": "GTCCGTGA", "E-score": -0.228}
{"Strand": "ACAAGATA", "E-score": 0.183}
{"Strand": "GATCTCGA", "E-score": -0.189}
{"Strand": "CACATCCC", "E-score": -0.167}
{"Strand": "AACAGTTG", "E-score": -0.0427}
{"Strand": "ATTCTGAC", "E-score": 0.0474}
{"Strand": "CAGACGAC", "E-score": -0.213}
{"Strand": "CTTCAACA", "E-score": 0.184}
{"data": "Single results of other studies"}
{"Sequence": "GMMRWCMPV", "target": "HLA class I histocompatibility antigen, A alpha chain, allele A*25:01 (Homo sapiens, UniProt P04439)", "effect on": "peptide-MHC binding", "molecule type": "peptide", "concentration": "concentration not given", "measurement": "binding", "value": "inactive"}
{"note": "Repeated from above (series 2):"}
{"Strand": "CCGCUUG", "7-mer Z-score": -0.452}
{"Strand": "UUGCCUC", "7-mer Z-score": -0.387}
